Results from different studies.
Each line is one published result; not all experiments were run side by side.
Cell line: NCI-H23

Compound	test	setting	scale	endpoint	result
Cc1ccc(C(=O)/C=C/c2ccccc2)s1	SRB	10 µM		growth inhibition	< 0%
Cc1ccc([N+](=O)[O-])cc1S(=O)(=O)N(C)/N=C/c1cnc2ccc(Br)cn12	cell growth or viability			IC50	> 10000 nM
CN(C)CCN1CCN(c2ccc3nc(-c4ccc5nc(-c6ccc(C(F)(F)F)cc6)[nH]c5c4)[nH]c3c2)CC1	SRB	10 µM, 48 h		growth percent	55.6%
C1=[N+]2CCCC[N+]3=Cc4ccc5[n]4[Au-]23[n]2c1ccc2-c1nc2ccccc2nc1-5.F[P-](F)(F)(F)(F)F	NCI60 five-dose screen			TGI	4.12 -log M
CNS(=O)(=O)Nc1nccc(Cc2c(C)c3ccc(Oc4ncccc4F)cc3oc2=O)c1F	cell viability	7 days		IC50	183 nM
CC(C)c1ccc(N(C)c2ccc3c(c2)OCC[C@H]3CNc2cnccc2C(=O)O)cc1	cell growth or viability, ATP luminescence	7 days		IC50	42.7 nM
O=C(Nc1nnc2c1c(-c1ccc(Cl)cc1)nc1sc(=Cc3ccco3)c(=O)n12)c1ccccc1 (mixture of isomers)	SRB	10 µM, NCI60 single-dose screen	relative to: untreated	cell growth	58.6%
O=C(CCl)c1ccccc1Nc1cccc(C(F)(F)F)c1	cell growth or viability, SRB	48 h		GI50	9860 nM
CCCC(CCC)C(=O)OCc1cn(-c2cc3ccccc3oc2=O)nn1	NCI60 single-dose screen	10 µM		growth percentage	94.5%
CCCCCCCCCCCCCCCCCCOc1ccccc1CCOP(=O)([O-])OCC[N+](C)(C)C	cell growth or viability, SRB	10 µM		inhibition	3.81%

For quick reference, copied from above:
Compound	test	setting	scale	endpoint	result
CN(C)CCN1CCN(c2ccc3nc(-c4ccc5nc(-c6ccc(C(F)(F)F)cc6)[nH]c5c4)[nH]c3c2)CC1	SRB	10 µM, 48 h		growth percent	55.6%
